Results collected from several papers.
Each line is one published result; not all experiments were run side by side. ± gives the spread as reported.
Cell line: HeLa

CC(C)C[C@H](NC(=O)[C@H](CC(C)C)NC(=O)[C@H](Cc1c[nH]cn1)NC(=O)[C@H](CCC(=O)O)NC(=O)[C@H](CC(C)C)NC(=O)[C@H](Cc1c[nH]cn1)NC(=O)[C@H](CCC(=O)O)NC(=O)[C@H](CC(C)C)NC(=O)[C@H](CC(C)C)NC(=O)[C@H](Cc1c[nH]cn1)NC(=O)[C@H](CCC(=O)O)NC(=O)[C@@H](N)CC(C)C)C(=O)N[C@@H](CCC(=O)O)C(=O)N[C@@H](Cc1c[nH]cn1)C(N)=O  IC50 (cell growth or viability, MTT; pH 6): > 100 µM
CC[C@H](C)[C@@H]1NC(=O)[C@H](Cc2c[nH]c3ccccc23)NC(=O)[C@H](C)NC(=O)[C@H](Cc2ccc(O)cc2)NC(=O)[C@H](CC(C)C)NC(=O)[C@H](Cc2c[nH]c3ccccc23)NC1=O  IC50 (cell growth or viability, MTT; 48 h): 169 mg/L
COC(=O)[C@H](C(C)C)N(C)C(=O)[C@H](C(C)C)N(C)C(=O)[C@@H]1CCCN1C(=O)[C@H](C)N(C)C(=O)OC(C)(C)C  IC50 (cell growth or viability, SRB): 23 µM
O=C(Cc1ccc2ccccc2c1)N[C@H](Cc1ccccc1)C(=O)N[C@H](Cc1ccc(O)cc1)C(=O)N[C@H](Cc1ccccc1)C(=O)N[C@H](Cc1ccc(O)cc1)C(=O)O  IC50 (cell growth or viability, MTT): > 500 mg/L
CC(C)C[C@H](NC(=O)[C@H](CCCCN)NC(=O)[C@H](CC(C)C)NC(=O)[C@H](CC(C)C)NC(=O)[C@H](CCCCN)NC(=O)[C@H](CCCCN)NC(=O)[C@H](CC(C)C)NC(=O)[C@H](CC(C)C)NC(=O)[C@H](CCCCN)NC(=O)[C@H](CC(C)C)NC(=O)[C@H](CC(C)C)NC(=O)[C@H](CCCCN)NC(=O)[C@H](CCCCN)NC(=O)[C@@H](N)CC(C)C)C(N)=O  IC50 (cell growth or viability, MTT; pH 6): 11.7 µM
C[C@H]1O[C@@H](O[C@H]2[C@@H](O)C[C@H](O[C@H]3[C@@H](O)C[C@H](O[C@H]4CC[C@@]5(C)[C@H](CC[C@@H]6[C@@H]5C[C@@H](O)[C@]5(C)[C@@H](C7=CC(=O)OC7)[C@@H](O)C[C@]65O)C4)O[C@@H]3C)O[C@@H]2C)C[C@H](O)[C@@H]1O  IC50 (cell growth or viability, MTT; 48 h): 0.63 µM
C[C@H]1[C@H](OC(=O)CCC(=O)OCCc2ccc(OC(=O)CCC(=O)O[C@@H]3O[C@@H]4O[C@@]5(C)CC[C@H]6[C@H](C)CC[C@@H]([C@H]3C)[C@@]46OO5)cc2)O[C@@H]2O[C@@]3(C)CC[C@H]4[C@H](C)CC[C@@H]1[C@@]24OO3  IC50 (cell growth or viability, MTT): 2.16 µM
C[C@@H](N)[C@H](O)CCCCCCCC(=O)CCCCCCCCCCCCCC[C@@H](O[C@@H]1O[C@H](CO)[C@H](O)[C@H](O)[C@H]1O)[C@H](N)CO  IC50 (cell growth or viability): 22.8 µM
CCc1ccc(C(c2c(C)nn(-c3ccccc3)c2O)c2c(C)nn(-c3ccccc3)c2O)cc1  IC50 (cell growth or viability, MTT; 48 h): 28.8 µM
CC(=O)N1CCC[C@H]1C(=O)N[C@@H](CC(C)C)C(=O)N[C@@H](Cc1c[n+](CCC(O)CO)cn1CCCCCCCCc1ccccc1)C(=O)N[C@@H](CO)C(=O)N[C@H](C(N)=O)[C@@H](C)OP(=O)([O-])O (some centres unmarked)  IC50 (cell proliferation; 48 h): ~90 µM
Cc1nn(-c2ccccc2)c(O)c1C(c1ccccc1[N+](=O)[O-])c1c(C)nn(-c2ccccc2)c1O  IC50 (cell growth or viability, MTT; 48 h): 39.2 µM
C=C(CO)[C@H]1Cc2c(ccc3c2O[C@@H]2COc4cc(OC)c(OC)cc4[C@]2(O)C3=O)O1  IC50 (cell growth or viability, MTT; 72 h): 19.9 µM
C[C@H]1O[C@@H](O[C@H]2CC[C@@]3(C)[C@H](CC[C@@H]4[C@@H]3CC[C@]3(C)[C@@H](C5=CC(=O)OC5)[C@@H](O)C[C@]43O)C2)C[C@H](O)[C@@H]1O[C@@H]1O[C@H](CO)[C@@H](O)[C@H](O)[C@H]1O  IC50 (cell growth or viability, MTT; 48 h): 0.16 µM
CC1=C(I)C(C)=[N+]2C1=C(c1ccc(OCCn3cc(CNC(=O)CSC[C@H](NC(=O)c4ccc(-c5nnc(C)nn5)cc4)C(=O)N[C@@H](CCCNC(=N)N)C(=O)N[C@@H](CCCNC(=N)N)C(=O)N[C@@H](CCCNC(=N)N)C(=O)N[C@@H](CCCNC(=N)N)C(=O)N[C@@H](CCCNC(=N)N)C(N)=O)nn3)cc1)c1c(C)c(I)c(C)n1[B-]2(F)F  IC50 (phototoxicity; 2 h plus 18 h, 2.5% FBS, together with: irradiation 525 nm for 160 s): 0.617 ± 0.024 µM
CC(C)C[C@H](NC(=O)[C@H](CCCCN)NC(=O)[C@H](CC(C)C)NC(=O)[C@H](CC(C)C)NC(=O)[C@H](CCCCN)NC(=O)[C@H](CCCCN)NC(=O)[C@H](CC(C)C)NC(=O)[C@H](CC(C)C)NC(=O)[C@H](CCCCN)NC(=O)[C@H](CC(C)C)NC(=O)[C@H](CC(C)C)NC(=O)[C@H](CCCCN)NC(=O)[C@H](CCCCN)NC(=O)[C@H](CC(C)C)NC(=O)[C@@H](N)CSSC[C@H](N)C(=O)N[C@@H](CC(C)C)C(=O)N[C@@H](CCC(=O)O)C(=O)N[C@@H](CCC(=O)O)C(=O)N[C@@H](CC(C)C)C(=O)N[C@@H](CC(C)C)C(=O)N[C@@H](Cc1c[nH]cn1)C(=O)N[C@@H](Cc1c[nH]cn1)C(=O)N[C@@H](CC(C)C)C(=O)N[C@@H](CCC(=O)O)C(=O)N[C@@H](CCC(=O)O)C(=O)N[C@@H](CC(C)C)C(=O)N[C@@H](CC(C)C)C(=O)N[C@@H](Cc1c[nH]cn1)C(=O)N[C@@H](Cc1c[nH]cn1)C(N)=O)C(N)=O  IC50 (cell growth or viability, MTT; pH 6): 10.2 µM
CC[C@H](C)[C@H](NC(=O)[C@H](CCCCN)NC(=O)[C@@H](NC(=O)[C@H](CCC(N)=O)NC(=O)[C@@H](N)CCCNC(=N)N)[C@@H](C)CC)C(=O)N[C@@H](Cc1c[nH]c2ccccc12)C(=O)N[C@@H](Cc1ccccc1)C(=O)N[C@@H](CCC(N)=O)C(=O)N[C@@H](CC(N)=O)C(=O)N[C@@H](CCCNC(=N)N)C(=O)N[C@@H](CCCNC(=N)N)C(=O)N[C@@H](CCSC)C(=O)N[C@@H](CCCCN)C(=O)N[C@@H](Cc1c[nH]c2ccccc12)C(=O)N[C@@H](CCCCN)C(=O)N[C@@H](CCCCN)C(N)=O  IC50 (cytotoxicity): 29.6 µM
CCCCCCCCCc1ccc(C(=O)N[C@@H](CO)C(=O)N[C@H](C(=O)N[C@@H](C)C(=O)N[C@H](C(N)=O)[C@@H](C)CC)[C@@H](C)OP(=O)(O)O)cc1  IC50 (cell growth or viability, MTT; 72 h): 38.2 µM

For quick reference, copied from above:
CCCCCCCCCc1ccc(C(=O)N[C@@H](CO)C(=O)N[C@H](C(=O)N[C@@H](C)C(=O)N[C@H](C(N)=O)[C@@H](C)CC)[C@@H](C)OP(=O)(O)O)cc1  IC50 (cell growth or viability, MTT; 72 h): 38.2 µM
